Measured values of several laboratories.
Parts stem from different laboratories: compare values within a part only. Changes are numbered by the printed parent chain.

Sample 1
Target: Probable WRKY transcription factor 50, DNA-binding domain (WRKY50, Arabidopsis thaliana, UniProt Q8VWQ5, residues 99-173)
UniProt Q8VWQ5, sequence (99-173, looked up): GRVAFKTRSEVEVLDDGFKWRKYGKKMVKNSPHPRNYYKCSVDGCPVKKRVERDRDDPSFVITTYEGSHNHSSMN
Technique: DNA-protein interaction ELISA
Form: double-stranded DNA, one strand shown
Medium: in vitro, bacterial lysate
Tested at: not given
Setting: whole dsDNA probe, crude lysate protein
Baseline: highest signal in screen
Direction: higher = stronger binding
Strand	relative absorbance
AAAAAAAAGCTTCGGAGTCTTGAGAAAAAA	37.9 % of maximum
AAAAAAGTCCGCCCTTAATTCATATTAAAA	78.5 % of maximum
AAAAAATCTTCTTGTTTCTTATTTCTAAAA	27.9 % of maximum
AAAAAATCGCACTGCCGCCGATGGCTAAAA	23.3 % of maximum
AAAAAAAGTTCCAGGTCCGATGCTCAAAAA	41 % of maximum
AAAAAAACTCACGGCGTCACTATGGTAAAA	15.1 % of maximum
AAAAAACGCAACTCCGGATGTGGGGTAAAA	14.9 % of maximum
AAAAAATTTATACTTGATCCTGGCTTAAAA	15.3 % of maximum

Sample 2
Target: CCNE2, cyclin fold, Cln2 fusion (human)
Technique: yeast growth competition, sequencing
Medium: yeast
Setting: strong parent motif
Baseline: not given
Direction: higher = stronger binding
Parent: BRCA2 docking peptide (human); PSIKRNLLNEFDR
Change	normalised enrichment score
PPIKRNLLNEFDR [S2P]	1.06
KSIKRNLLNEFDR [P1K]	2.72
PSIKRNHLNEFDR [L7H]	-0.221
PSIKRNLNNEFDR [L8N]	1.31
PSIKANALNEFDR [R5A L7A]	0.0389
PSIKRNLLNNFDR [E10N]	0.792
PSIKRNQLNEFDR [L7Q]	0.172
PSIKRNLLNEYDR [F11Y]	0.554
PSIKRNLLNEFMR [D12M]	2.55

Sample 3
Target: Interferon regulatory factor 3, full length, phosphomimetic (IRF3, Homo sapiens, UniProt Q14653, residues 1-427, S386D/S396D/S398D/S402D/T404D/S405D)
Technique: protein-binding microarray
Form: double-stranded DNA, one strand shown
Medium: in vitro
Tested at: 2540 nM top
Setting: 60-bp whole probe
Together with: salmon DNA 0.4 mg/ml
Baseline: random background probes
Direction: higher = stronger binding
Shared flanks, not repeated: GCCTAGCAC … GTCTTGATTCGCTTGACGCTGCTG
Target sequence (chain): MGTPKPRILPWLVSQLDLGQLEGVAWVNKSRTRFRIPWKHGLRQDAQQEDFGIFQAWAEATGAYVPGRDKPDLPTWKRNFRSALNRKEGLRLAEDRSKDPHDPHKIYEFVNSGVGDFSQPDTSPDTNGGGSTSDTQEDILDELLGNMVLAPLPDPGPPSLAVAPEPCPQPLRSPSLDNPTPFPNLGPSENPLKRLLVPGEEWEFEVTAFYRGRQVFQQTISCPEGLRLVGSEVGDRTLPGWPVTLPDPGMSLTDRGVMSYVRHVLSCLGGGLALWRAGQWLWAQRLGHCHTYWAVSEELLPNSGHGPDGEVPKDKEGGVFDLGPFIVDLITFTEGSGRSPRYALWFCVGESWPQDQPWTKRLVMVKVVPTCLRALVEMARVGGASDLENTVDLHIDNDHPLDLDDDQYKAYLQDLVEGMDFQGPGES
Strand	fitted relative affinity [z-score]
TCATTTTGGTTTTCTCTAACTGTGCTA	2.31
TTAGAACTGGGGTTGCGATTAGTGCTA	-0.213
TTAGGACTGCTTCTCTTTTAGTGCTAG	0.346
TCAAGTTTAATATCTAAGACTGTGCTA	-0.228
GGCGATATCGGGTATCGAGACGTGCTA	-0.0723
TCAGCTCACGCTTTGGAACTGTGCTAG	-0.39
GACAATATCAGACTGGAGACGTGCTAG	0.283
GACGGTTTCCTCATCCTGACGTGCTAG	4.41
TTAGGACTGCTTTTTCTTTAGTGCTAG	0.18
TTGGGTTTCCTTTTCCTTTAGTGCTAG	10.5
TTAGAACTGAGTCTCGTTTAGTGCTAG	-0.265

Other studies, line by line
Substance	target	test	system	setting	how to read	endpoint	value
PhoQ, residues 284 288 289 292 302 303 SSCLAV	PhoP, residues 12 14 15 18 19 TPWLV (Escherichia coli, UniProt P23836)	Sort-seq, measured: YFP reporter	E. coli	PhoQ-PhoP variant library, together with: 10 µM Mg2+	baseline: high Mg2+ state, higher = stronger signaling	fold induction	11.1

Excerpt of the above (sample 2):
Change	normalised enrichment score
PSIKANALNEFDR [R5A L7A]	0.0389
PSIKRNLLNNFDR [E10N]	0.792
PSIKRNQLNEFDR [L7Q]	0.172
